Experimental data pooled from the literature.
Every numbered part comes from another study and shows a few of its results, in no order. Changes are numbered by the printed parent chain.

Set 1 — target: FOS, bZIP domain (human); method: DHFR protein complementation; sample: yeast; baseline: wild-type JUN-FOS pair; direction: higher = stronger binding
Setting: single substitutions, most at no-binding floor
Starting sequence: JUN, bZIP domain (human); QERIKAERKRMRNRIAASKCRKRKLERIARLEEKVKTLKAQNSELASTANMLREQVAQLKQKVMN; partner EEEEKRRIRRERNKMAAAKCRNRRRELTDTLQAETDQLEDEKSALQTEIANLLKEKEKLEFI
`V56M` gave a binding fitness of -0.965 natural log.
The binding fitness of `E33I` is reported as -0.36 natural log.
`A57C` has a binding fitness of -0.281 natural log.
`L38E` has a binding fitness of -1.12 natural log.
For `L52R`, the binding fitness was -1.19 natural log.
For `E54N`, the binding fitness was -0.148 natural log.
`S47W` has a binding fitness of -0.152 natural log.
`V56A` gave a binding fitness of -1.25 natural log.

Set 2 — observed: enzyme activity; mode: inhibitor; concentration: 0.5 µM; baseline: control
Target: Calcium/calmodulin-dependent protein kinase type 1G (CAMK1G, Homo sapiens, UniProt Q96NX5)
UniProt Q96NX5, sequence (whole entry, looked up): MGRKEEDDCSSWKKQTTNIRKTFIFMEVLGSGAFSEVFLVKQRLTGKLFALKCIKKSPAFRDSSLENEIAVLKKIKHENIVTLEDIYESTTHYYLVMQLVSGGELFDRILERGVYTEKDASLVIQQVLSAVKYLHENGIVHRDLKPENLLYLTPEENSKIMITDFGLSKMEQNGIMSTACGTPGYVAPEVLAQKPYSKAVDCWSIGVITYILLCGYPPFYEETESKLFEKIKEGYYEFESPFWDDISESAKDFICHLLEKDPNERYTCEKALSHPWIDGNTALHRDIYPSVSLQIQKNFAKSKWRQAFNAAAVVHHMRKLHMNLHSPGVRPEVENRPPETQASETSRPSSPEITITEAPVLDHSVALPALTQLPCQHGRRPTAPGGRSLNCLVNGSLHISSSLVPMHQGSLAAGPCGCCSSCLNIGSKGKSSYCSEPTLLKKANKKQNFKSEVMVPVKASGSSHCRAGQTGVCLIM
For `CN(C)c1ccc(C=C2C(=O)Nc3ccccc32)cc1`, the remaining activity was 99.9%.
The remaining activity of `CCOC(=O)c1c(C)[nH]c(/C=C2\C(=O)Nc3ccccc32)c1C` is reported as 98.2%.
For `Nc1ncnc2n[nH]c(Nc3ccc(F)cc3)c12`, the remaining activity was 97.2%.
For `O=C(Nc1cccc(Nc2cc(Nc3cccc(C(F)(F)F)c3)ncn2)c1)C1CC1`, the remaining activity was 96.9%.
`Cn1c2ccccc2c2c3c(c4c5ccccc5n(CCC#N)c4c21)CNC3=O` gave a remaining activity of 101%.
With `O=S(=O)(c1cccc2cnccc12)N1CCCNCC1` the remaining activity was 101%.
With `COc1cc2nccc(Oc3ccc(NC(=S)NC(=O)c4ccccc4C)cc3)c2cc1OC` the remaining activity was 99.5%.
The remaining activity of `O=C(O)c1ccc2c3c1cccc3c(=O)n1c3ccccc3nc21` is reported as 99%.
With `O=C1NC(=O)C(c2cn(CCCO)c3ncccc23)=C1c1cnccn1` the remaining activity was 101%.
`CO[C@H]1C[C@@H]2CC[C@@H](C)[C@@](O)(O2)C(=O)C(=O)N2CCCC[C@H]2C(=O)O[C@H]([C@H](C)C[C@@H]2CC[C@@H](O)[C@H](OC)C2)CC(=O)[C@H](C)/C=C(\C)[C@@H](O)[C@@H](OC)C(=O)[C@H](C)C[C@H](C)/C=C/C=C/C=C/1C` has a remaining activity of 93%.
`Oc1ccc(-c2nc(-c3ccncc3)c(-c3ccc(F)cc3)[nH]2)cc1` has a remaining activity of 98.5%.
With `Cc1ccc(NC(=O)c2ccc(CN3CCN(C)CC3)cc2)cc1Nc1nc(-c2cccnc2)cs1` the remaining activity was 106%.
`NCCNc1ncc(C(N)=O)c(Nc2cccc(C(F)(F)F)c2)n1` gave a remaining activity of 74%.
For `CNC(=O)c1cc(Oc2ccc(NC(=O)Nc3ccc(Cl)c(C(F)(F)F)c3)cc2)ccn1`, the remaining activity was 107%.

Set 3 — target: CCNB3, cyclin fold, Cln2 fusion (human); method: yeast growth competition, sequencing; sample: yeast; setting: weak parent motif; baseline: not given; direction: higher = stronger binding
Starting sequence: CDKN1A docking peptide (human); SKACRRLFGPVDS
`K2P`: “normalised enrichment score” 0.642.
`P10G`: “normalised enrichment score” 0.475.
`R5H` — result for “normalised enrichment score”: 0.15.
`L7Q` — result for “normalised enrichment score”: 0.183.
Under “normalised enrichment score”, `D12N` is recorded as 0.767.
Under “normalised enrichment score”, `L7M` is recorded as 0.297.
Under “normalised enrichment score”, `R6P` is recorded as -0.178.
`R5Y` — result for “normalised enrichment score”: 0.156.

Set 4 — observed: binding; method: radioligand binding; concentration: 10 µM
Target: Sigma intracellular receptor 2 (TMEM97, Homo sapiens, UniProt Q5BJF2)
UniProt Q5BJF2, sequence (whole entry, looked up): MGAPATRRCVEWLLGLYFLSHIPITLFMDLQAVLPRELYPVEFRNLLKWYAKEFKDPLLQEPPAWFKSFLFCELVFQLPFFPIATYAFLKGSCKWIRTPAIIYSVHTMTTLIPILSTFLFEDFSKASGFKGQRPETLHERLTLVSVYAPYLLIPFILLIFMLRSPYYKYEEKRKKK
For `CC(=O)Nc1nc(CN2CCC[C@H](Cc3cc(C)nc(C)c3)C2)cs1`, the inhibition was 59.6%.
With `CC(C)(O)c1cncc(-c2nc3ccc(F)cc3n2C2CC2)c1` the inhibition was 22.7%.
For `O=C(NC[C@@H]1[C@H]2CN(C(=O)OCc3cc(C(F)(F)F)cc(C(F)(F)F)c3)C[C@@H]12)c1ccc2[nH]nnc2c1`, the inhibition was 44.9%.
`Cc1c(N2CCCC2)nc2ccc(Br)cc2c1C(=O)NC[C@H](CCC(=O)O)c1ccccc1Cl` gave an inhibition of 8.52%.
The inhibition of `COCc1nc2cnc3cc(-c4c(C)noc4C)c(OC[C@H]4CCNC4)cc3c2n1[C@H](C)c1ccccc1` is reported as 23%.
The inhibition of `C[C@H](NC(=O)c1cnc2n1[C@](C)(Cc1ccc(C#N)cc1)C(=O)N2c1cc(Cl)c(F)c(Cl)c1)C(=O)NC1(c2ccccn2)CC1` is reported as 25.9%.
`Cc1cc(-n2nc(Cc3cc(F)cc(C(F)(F)F)c3)nc2C)ccc1C(N)=O` gave an inhibition of -7.3%.
The inhibition of `O=C(Nc1ccc(-n2nc(-c3cccnc3)cc2C(F)(F)F)cn1)c1ccc(-c2ccccc2)c(F)c1` is reported as 30.1%.
